Experimental data of several laboratories.
Each line is one published result; not all experiments were run side by side. “And” joins repeats or separate records; there may be more than shown.
Target: 5-hydroxytryptamine receptor 1A (HTR1A, Homo sapiens, UniProt P08908)

SMILES	test	test system	setting	how to read	endpoint	result
Cc1cc(Nc2nc(C[C@@]3(C(=O)O)CCN(Cc4cccc(Cl)c4F)[C@H](C)C3)cc(C)c2F)[nH]n1	agonist		10 µM		activation	-0.18%
COc1ccc(F)cc1S(=O)(=O)Nc1cnc2c(c1)C(=O)NCCO2	ligand displacement, radioligand		10 µM		inhibition	5%
Cc1sc2c(c1C)C(c1ccc(Cl)cc1)=NC(CC(=O)OC(C)(C)C)c1nnc(C)n1-2 (centres unmarked)	ligand displacement, radioligand		1 µM		inhibition	-14%
CS(C)(=O)=Nc1ccc(-c2ccc(-c3nc4cc(O[C@@H]5CO[C@H]6[C@@H]5OC[C@H]6O)[nH]c4cc3F)cc2)cc1	calcium signal, antagonist		10 µM		inhibition	7%
CCN(CC)CCOc1ccc(-c2nnn(Cc3ccc(OC)cc3)c2N)cc1	radioligand binding	HEK293	10 µM, safety profiling		inhibition	-3.03%
Cc1cc(-c2ccc3ccccc3c2)nnc1NCCN1CCN(C)CC1	antagonist		concentration not given		antagonist activity	negative
CN[C@@H]1[C@H](O)[C@H](NC)[C@H]2O[C@]3(O)[C@H](O[C@@H]2[C@H]1O)O[C@H](C)C[C@H]3NC(=O)Cc1ccc(Cl)cn1	ligand displacement, radioligand		10 µM		inhibition	4%
C/C(=N\OCCCN1CCCCC1)c1ccc(C(F)(F)F)cc1	antagonist, cAMP		10 µM		inhibition	-6.89%
O=C1c2ccccc2CCCN1CCCCN1CCN(c2cccc(Cl)c2Cl)CC1	radioligand binding		concentration not given, together with: [3H]8-OH-DPAT		inhibition	99%
CCOC(=O)[C@](CC)(CCCSCCOCCOCCNC(=O)c1ccc(-c2c3ccc(=N)c(S(=O)(=O)O)c-3oc3c(S(=O)(=O)O)c(N)ccc23)c(C(=O)O)c1)NC(=O)c1ccc(C2CC2)c(Cc2ccc(F)cc2)n1	ligand displacement, radioligand		10 µM		inhibition	1%
COc1ccccc1N1CCN(CCCCN2CCCc3ccccc3C2=O)CC1	radioligand binding		concentration not given, together with: [3H]8-OH-DPAT		inhibition	97.9%
O=C(O)c1ccc(-c2nc(-c3ccccc3Cl)c3sccn23)cc1	radioligand binding, safety screen panel		10 µM	relative to: control	specific binding	59.2% and 66.5%
N[C@H](C(=O)N1CCCC1)C1CCN(c2nccc3c(-c4ncc(Cl)cc4Cl)cccc23)CC1	functional response, agonist		10 µM		response	0%
CCc1nnc(-c2c(OC)cc(-c3cnc4cc(-c5cnn(C)c5)ccn34)cc2OC)o1	agonist radioligand, radioligand binding		10 µM, SafetyScreen44 5-HT1A replicate 2	lower = stronger displacement	remaining binding	88%

A few entries again:
SMILES	test	test system	setting	how to read	endpoint	result
Cc1cc(Nc2nc(C[C@@]3(C(=O)O)CCN(Cc4cccc(Cl)c4F)[C@H](C)C3)cc(C)c2F)[nH]n1	agonist		10 µM		activation	-0.18%
COc1ccc(F)cc1S(=O)(=O)Nc1cnc2c(c1)C(=O)NCCO2	ligand displacement, radioligand		10 µM		inhibition	5%
